Results of several laboratories.
Each line is one published result; not all experiments were run side by side. Several values in a cell are separate wells, animals, samples, runs or records. ± gives the spread as reported.
Fibroin-modulator-binding protein-1: Fibroin-modulator-binding protein-1 99-193 (Bombyx mori, UniProt Q5FBS0)
SPT15/TOA1/TOA2/SUA7 1-240; 1-286; 1-122; 1-345: SPT15/TOA1/TOA2/SUA7 1-240; 1-286; 1-122; 1-345 (Saccharomyces cerevisiae)
UniProt P48067, sequence (whole entry, looked up): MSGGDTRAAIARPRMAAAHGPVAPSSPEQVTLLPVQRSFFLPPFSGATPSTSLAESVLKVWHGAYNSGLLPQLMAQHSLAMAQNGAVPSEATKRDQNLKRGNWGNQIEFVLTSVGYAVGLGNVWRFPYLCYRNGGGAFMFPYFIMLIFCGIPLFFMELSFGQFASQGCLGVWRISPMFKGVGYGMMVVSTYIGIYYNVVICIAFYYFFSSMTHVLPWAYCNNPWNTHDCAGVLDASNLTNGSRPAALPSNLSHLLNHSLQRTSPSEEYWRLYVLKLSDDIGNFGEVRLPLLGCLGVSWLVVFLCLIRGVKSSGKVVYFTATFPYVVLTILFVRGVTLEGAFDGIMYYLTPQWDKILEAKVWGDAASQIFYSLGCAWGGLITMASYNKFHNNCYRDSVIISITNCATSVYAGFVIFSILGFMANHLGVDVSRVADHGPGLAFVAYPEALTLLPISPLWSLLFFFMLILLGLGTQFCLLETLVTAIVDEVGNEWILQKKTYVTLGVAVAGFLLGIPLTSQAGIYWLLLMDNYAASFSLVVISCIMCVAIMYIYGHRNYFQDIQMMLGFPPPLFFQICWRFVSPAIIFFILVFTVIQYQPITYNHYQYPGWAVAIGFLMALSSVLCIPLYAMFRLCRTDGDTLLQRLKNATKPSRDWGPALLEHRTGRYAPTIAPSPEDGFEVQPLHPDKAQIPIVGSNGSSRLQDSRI
UniProt Q64663, sequence (whole entry, unmodified, looked up): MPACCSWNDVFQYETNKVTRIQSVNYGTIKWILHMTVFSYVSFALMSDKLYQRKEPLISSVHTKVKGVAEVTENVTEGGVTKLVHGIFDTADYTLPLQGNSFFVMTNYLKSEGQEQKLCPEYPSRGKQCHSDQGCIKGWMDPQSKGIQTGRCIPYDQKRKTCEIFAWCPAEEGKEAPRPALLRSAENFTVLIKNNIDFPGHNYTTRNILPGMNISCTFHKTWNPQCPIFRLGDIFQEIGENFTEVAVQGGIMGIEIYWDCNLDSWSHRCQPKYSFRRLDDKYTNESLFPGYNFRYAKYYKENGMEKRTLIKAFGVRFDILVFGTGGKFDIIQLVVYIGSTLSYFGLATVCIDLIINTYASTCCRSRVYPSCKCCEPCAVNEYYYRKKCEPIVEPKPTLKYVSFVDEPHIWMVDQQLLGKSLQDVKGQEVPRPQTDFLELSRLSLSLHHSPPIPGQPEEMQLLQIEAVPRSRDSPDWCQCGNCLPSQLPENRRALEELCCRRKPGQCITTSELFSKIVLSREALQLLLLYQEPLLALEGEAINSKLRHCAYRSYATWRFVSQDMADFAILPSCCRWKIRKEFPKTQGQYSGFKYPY

methyl-β-cyclodextrin — glycine uptake rate (Sodium- and chloride-dependent glycine transporter 1 (SLC6A9, Homo sapiens, UniProt P48067); transport activity, [3H]glycine uptake; 3.5 mg/mL, 1 min, added: glycine 600 µM; higher = more transport): 64.5 a.u. and 63.2 a.u. and 61.6 a.u. and 61.9 a.u.
GSGAGPETLV — normalised SPR binding response (human MAGI1-3/6 PDZ construct (MBP fusion); surface plasmon resonance; peptide; concentration not given; higher = stronger binding): 56 normalised RU
GGGAGAACUUCGACCAGAAGUUUCCUAGUCCAUUUUGGCGCACGCGAAUACGGGAGACACUAUGUGCGCAUACAUGGAUCCUC (ssRNA; 2'-fluoro pyrimidines) — relative binding (integrin alphaV/beta3 31-992/27-718 (Homo sapiens); SPR; RNA; added: MnCl2 1 mM; higher = more binding): 114 RU
GCCCGCCCGCCC (dsDNA) — Kd (Fibroin-modulator-binding protein-1; ITC; double-stranded DNA, one strand shown): 10.5 µM
GTTCCTGAAGGGGGGGCTATAAAACGGGGTGGGGGTCAAGTCAATCGGTCC (dsDNA; 5'-amino-C6 primer) — Kd (SPT15/TOA1/TOA2/SUA7 1-240; 1-286; 1-122; 1-345; array; double-stranded DNA, one strand shown; TBP:TFIIA:TFIIB ternary complex): 0.00162 ± 0.00015 µM
FGA (Homo sapiens, UniProt P02671) — cross-linked residues (CTNNA3 (Homo sapiens, UniProt Q9UI47); cross-linking MS; added: DSSO): K476 to K681
DNA 1 CACTGGCCGTCTTACGGTCGCTCTGCTCGACG / DNA 2 CGACCGTAAGACGGCCAGTG (dsDNA; 20 bp, 3' 12 nt overhang) — Kd (RECQL 63-592 Q324A (Homo sapiens, UniProt P46063); fluorescence anisotropy; double-stranded DNA; added: Mg2+ 3 mM): 0.0717 ± 0.0128 µM
11-deoxycorticosterone — rate constant k-4 (human CYP11B2; substrate, stopped-flow kinetics; 4-state closed model, added: adrenodoxin 10-fold excess): 24.8 min⁻¹
CGCGCCTGCGCTCTATATATACAGCGGCCCTGCCCTCAAGTCAATCGGTCC (dsDNA; 5'-amino-C6 primer) — Kd (SPT15/TOA1/TOA2/SUA7 1-240; 1-286; 1-122; 1-345; array; double-stranded DNA, one strand shown; TBP:TFIIA:TFIIB ternary complex): 0.00174 ± 0.00023 µM
Peginesatide — phosphorylation level (UT7/EPO; tyrosine phosphorylation, LC-MS/MS phosphoproteomics, GluC, measured: SPTA1 tyrosine 2332; 10 nM, 15 min, added: 10 U/mL EPO; reference: vehicle): 4.6 fold
colistin — MIC (Pseudomonas aeruginosa; clinical isolate RKI 628/16): 1 µg/mL
CTCAGGAATTCCTATAACGTAATGTGGAGCTCAGTTCAAGTCAATCGGTCC (dsDNA; 5'-amino-C6 primer) — Kd (SPT15/TOA1/TOA2/SUA7 1-240; 1-286; 1-122; 1-345; array; double-stranded DNA, one strand shown; TBP:TFIIA:TFIIB ternary complex): 0.00186 ± 0.00035 µM
GTACGTACGTAC (dsDNA) — Kd (Fibroin-modulator-binding protein-1; ITC; double-stranded DNA, one strand shown): 3.87 ± 0.328 µM
CTCAGGAATTCCTACAAAGTAATGTGGAGCTCAGTTCAAGTCAATCGGTCC (dsDNA; 5'-amino-C6 primer) — Kd (SPT15/TOA1/TOA2/SUA7 1-240; 1-286; 1-122; 1-345; array; double-stranded DNA, one strand shown; TBP:TFIIA:TFIIB ternary complex): 0.00137 ± 0.00019 µM
DNA 1 TGGGTGGGTAGGGTGGGTAGGGGAGGAT / DNA 2 ATCCTCCCCTA (DNA; intramolecular parallel G4, 5' overhang, 11-bp duplex) — Kd (REV1 330-833 P831L (Homo sapiens, UniProt Q9UBZ9); FP; folded DNA; KCl 100 mM): 0.0041 ± 0.0015 µM
AGGCAGGCAGGC (dsDNA) — Kd (Fibroin-modulator-binding protein-1; ITC; double-stranded DNA, one strand shown): 7.75 µM
ATTATGTCGTTGGATTTATTT (ssDNA; single-stranded) — IC50 (APOBEC3B 187-382 E255A (Homo sapiens, UniProt Q9UH17); competitive fluorescence polarization; single-stranded DNA): 1 ± 0.1 µM
GGGAGAACUUCGACCAGAAGGUGCACGGCAAUACGCAUGACGUUCACCCUGCCUUUGCCUUAUGUGCGCAUACAUGGAUCCUC (ssRNA; 2'-fluoro pyrimidines) — relative binding (integrin alphaV/beta3 31-992/27-718 (Homo sapiens); SPR; RNA; added: MnCl2 1 mM; higher = more binding): 51.1 RU
AATCAATCAATC (dsDNA) — Kd (Fibroin-modulator-binding protein-1; ITC; double-stranded DNA, one strand shown): 2.43 ± 0.269 µM
GGGAGAACUUCGACCAGAAGAUUCCAGAGAGCGACACAUUACGCGAAACACUCGCCCGCCUAUGUGCGCAUACAUGGAUCCUC (ssRNA; 2'-fluoro pyrimidines) — relative binding (integrin alphaV/beta3 31-992/27-718 (Homo sapiens); SPR; RNA; added: MnCl2 1 mM; higher = more binding): 45.8 RU
FNA / CGLSGLGVA-NH2 ([18F]FNA-labelled, C-amide) — tissue uptake (ex vivo gamma counting; peptide, glioblastoma mouse model, stomach; 60 min post injection, added: 500-fold excess CooP blocking): 0.36 %ID/g
GGGAGAACUUCGACCAGAAGACCAAUAACCGUUCACAUUACGCAUCAACUCAACCUGCCUAUGUGCGCAUACAUGGAUCCUC (ssRNA; 2'-fluoro pyrimidines) — relative binding (integrin alphaV/beta3 31-992/27-718 (Homo sapiens); SPR; RNA; added: MnCl2 1 mM; higher = more binding): 18.6 RU
ACGGACGGACGG (dsDNA) — Kd (Fibroin-modulator-binding protein-1; ITC; double-stranded DNA, one strand shown): 26.7 µM
GGGAGAACUUCGACCAGAAGUAGCUCAUAACGACCAAAACGACCCAGCAGUUCCUUUCGUUAUGUGCGCAUACAUGGAUCCUC (ssRNA; 2'-fluoro pyrimidines) — relative binding (integrin alphaV/beta3 31-992/27-718 (Homo sapiens); SPR; RNA; added: MnCl2 1 mM; higher = more binding): 21.6 RU
BzATP — normalized current (P2X purinoceptor 7 (P2rx7, Rattus norvegicus, UniProt Q64663, I214A/Q143A/R125A); ion current, agonist, two-electrode voltage clamp; Xenopus oocytes; 3.7 µM): 0

Repeated from above:
DNA 1 CACTGGCCGTCTTACGGTCGCTCTGCTCGACG / DNA 2 CGACCGTAAGACGGCCAGTG (dsDNA; 20 bp, 3' 12 nt overhang) — Kd (RECQL 63-592 Q324A (Homo sapiens, UniProt P46063); fluorescence anisotropy; double-stranded DNA; added: Mg2+ 3 mM): 0.0717 ± 0.0128 µM
CGCGCCTGCGCTCTATATATACAGCGGCCCTGCCCTCAAGTCAATCGGTCC (dsDNA; 5'-amino-C6 primer) — Kd (SPT15/TOA1/TOA2/SUA7 1-240; 1-286; 1-122; 1-345; array; double-stranded DNA, one strand shown; TBP:TFIIA:TFIIB ternary complex): 0.00174 ± 0.00023 µM
GTACGTACGTAC (dsDNA) — Kd (Fibroin-modulator-binding protein-1; ITC; double-stranded DNA, one strand shown): 3.87 ± 0.328 µM
